Published values of several laboratories.
Every numbered part comes from another study and shows a few of its results, in no order. Changes are numbered by the printed parent chain.

Series 1 — method: protein-binding microarray; form: double-stranded DNA, one strand shown; medium: in vitro; tested at: 940 nM top; setting: 60-bp whole probe; added: salmon DNA 0.4 mg/ml; baseline: random background probes; direction: higher = stronger binding; endpoint: fitted relative affinity; all sequences stand within: GCCTAGCAC … GTCTTGATTCGCTTGACGCTGCTG
Target: Interferon regulatory factor 5, full length, phosphomimetic (IRF5, Homo sapiens, UniProt Q13568-2, residues 1-514, S451D/S453D/S456D/S462D)
GACGTACTGGGGTTTCGGGACGTGCTA: 2.01 z-score
TTAGGTCTCGGACTTGGTTAGTGCTAG: 0.917 z-score
GACGGACTGTGTCTCGGGACGTGCTAG: -0.262 z-score
ATAGGTATCGGTCTCGGTTAGTGCTAG: 8.9 z-score
TTCCTTCTTGAACTCTTTACGTGCTAG: 1.79 z-score
GAAGATATCGGGTTTCGAGACGTGCTA: 1.79 z-score
TTAGAACTGGGGTATCGGTTAGTGCTA: 2.86 z-score
TCACATTTCCAATTACCACTGTGCTAG: 0.994 z-score
TTGCCTCACCTCACCTGTCCGTGCTAG: 0.373 z-score
TTAGATCGCAGTTTCGATTAGTGCTAG: 6.94 z-score
TCATCTCTGGACTGTGTGACTGTGCTA: -0.174 z-score
GTAGATCTCAGTATCGATTAGTGCTAG: 4.69 z-score
GACTGTATCGGGTATCGGGACGTGCTA: 2.24 z-score
TCATAACTCATTCTCTGACTGTGCTAG: 0.669 z-score
TTAGGTCTCGGTCTCTGTTAGTGCTAG: 4.69 z-score
TCACTTTCCACTTTCTTACTGTGCTAG: 2.9 z-score

Series 2 — target: CCNB1, cyclin fold, Cln2 fusion (human); method: yeast growth competition, sequencing; medium: yeast; setting: strong parent motif; baseline: not given; direction: higher = stronger binding; endpoint: normalised enrichment score
Starting sequence: RBL2 docking peptide (human); STTRRRLFVENDS
E10A: 0.457
R5K: 1.31
S1K: 0.764
N11Y: 0.683
N11T: 1.02
V9N: 1.38
R5E: 0.243
R5Q: 1.52
D12E: 0.345
L7A: 1.38
E10H: 0.957
L7S: 0.206
N11L: 0.886

Series 3 — method: universal PBM; form: double-stranded DNA, one strand shown; medium: in vitro; tested at: 600 nM; direction: higher = stronger binding; endpoint: E-score
Target: Sal-like protein 4, full length isoform A (SALL4, Homo sapiens, UniProt Q9UJQ4, residues 1-1053)
UniProt Q9UJQ4, sequence (whole entry, looked up): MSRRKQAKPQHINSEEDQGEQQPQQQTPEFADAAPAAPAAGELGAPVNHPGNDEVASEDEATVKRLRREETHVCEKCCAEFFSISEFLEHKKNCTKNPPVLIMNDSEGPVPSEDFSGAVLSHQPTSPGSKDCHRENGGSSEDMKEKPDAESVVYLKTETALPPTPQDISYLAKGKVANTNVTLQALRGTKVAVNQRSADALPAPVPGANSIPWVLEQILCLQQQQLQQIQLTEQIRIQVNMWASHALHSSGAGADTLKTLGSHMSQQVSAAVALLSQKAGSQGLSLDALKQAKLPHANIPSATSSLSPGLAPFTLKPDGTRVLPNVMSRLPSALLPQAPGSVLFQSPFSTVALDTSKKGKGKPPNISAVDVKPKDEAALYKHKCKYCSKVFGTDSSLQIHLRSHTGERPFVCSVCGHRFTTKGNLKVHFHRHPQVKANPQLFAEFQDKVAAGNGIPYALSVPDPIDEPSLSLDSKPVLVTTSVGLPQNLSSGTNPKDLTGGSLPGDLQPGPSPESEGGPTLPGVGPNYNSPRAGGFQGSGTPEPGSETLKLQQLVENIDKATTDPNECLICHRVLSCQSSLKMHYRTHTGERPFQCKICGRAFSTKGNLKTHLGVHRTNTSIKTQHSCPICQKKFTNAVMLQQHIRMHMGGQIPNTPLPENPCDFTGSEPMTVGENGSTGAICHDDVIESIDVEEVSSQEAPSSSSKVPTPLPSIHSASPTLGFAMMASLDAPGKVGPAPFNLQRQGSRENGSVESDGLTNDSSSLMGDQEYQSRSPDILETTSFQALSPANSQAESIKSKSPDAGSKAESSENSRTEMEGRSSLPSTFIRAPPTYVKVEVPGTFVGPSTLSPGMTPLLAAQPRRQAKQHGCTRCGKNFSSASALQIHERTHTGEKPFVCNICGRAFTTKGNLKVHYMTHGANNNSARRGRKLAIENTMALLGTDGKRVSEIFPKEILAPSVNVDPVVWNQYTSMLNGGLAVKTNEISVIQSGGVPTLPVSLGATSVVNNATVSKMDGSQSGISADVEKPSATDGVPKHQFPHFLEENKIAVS
Setting: 8-mer, flanks averaged, mean of replicates
GCGGGCAA: -0.28
AAAGGTCT: 0.0192
GCTATTCC: -0.179
CCGGGCCA: -0.446
TACATCTA: 0.221
CATCGTGG: -0.255
ATCTTTAA: 0.271
AGACAGGG: -0.166
CCAAAGTC: -0.086
TTCTGAAA: 0.214
AGGACGTG: -0.0881
AATGGTCG: -0.034
CCCCACCC: -0.156
AGACCAGG: -0.274
GCTCGCGA: -0.0627
GGTCGCAC: -0.233
AGACGCCT: -0.267
GAGTAGCA: -0.0397

Series 4 — method: protein-binding microarray; form: double-stranded DNA, one strand shown; medium: in vitro; tested at: 0.8 µM; setting: whole 60-bp probe, no competitor; direction: higher = stronger binding; endpoint: fluorescence intensity; all sequences stand within: … GTCTTGATTCGCTTGACGCTGCTG
Target: Centromere-binding protein 1, full length, N-terminal tag (CBF1, Saccharomyces cerevisiae, UniProt P17106, residues 1-351)
UniProt P17106, sequence (whole entry, looked up): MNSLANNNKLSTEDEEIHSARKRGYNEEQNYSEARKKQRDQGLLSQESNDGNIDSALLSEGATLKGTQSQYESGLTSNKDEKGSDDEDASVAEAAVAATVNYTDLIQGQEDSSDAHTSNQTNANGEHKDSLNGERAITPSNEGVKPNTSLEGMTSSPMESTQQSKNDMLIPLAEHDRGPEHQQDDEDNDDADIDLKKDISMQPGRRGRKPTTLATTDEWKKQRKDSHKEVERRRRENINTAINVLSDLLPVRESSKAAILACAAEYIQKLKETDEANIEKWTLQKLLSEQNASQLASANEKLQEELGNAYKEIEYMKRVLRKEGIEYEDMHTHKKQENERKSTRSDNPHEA
CTATTTTTCGGGGCGCCCGTGCAAAAACTAACTTTC: 557 a.u.
GAAACATACTAATATCACGATTATTCCTCATTCTAG: 538 a.u.
GAAAACTTTATTTGTCACCTTTTTGCTGGTATTTAG: 528 a.u.
GAACTTTTTTTTGCAATCGTGATTACAGAAAAATAG: 754 a.u.
CTAGGAAAAAGGTTTGTCACGAGCACCTAACTATTC: 1270 a.u.
CTACTACCTTCACTGCACGAAACCAAAACCGACTTC: 575 a.u.
CTAAAAAAAAAAAGTCATGTGACTTGAATATTATTC: 15200 a.u.
GAAGAAGAAGGACGTCACCCCTGCATTCCCAAATAG: 502 a.u.
GAACAAAGTCACATACTGATGATGATATTGTAATAG: 543 a.u.
CTATTGGTCTTTCATCAGATGATATGCCAGATATTC: 625 a.u.
CTATCATTTCTTCGTGACGTTGGTGACAGGAATTTC: 652 a.u.
GAAGCTGATACAGGGCACGTGAGAGGTCACTGATAG: 5300 a.u.
GAATCTCCGAGACACGTGCTAATATCTATTTCATAG: 8590 a.u.
GAATGGATTTTTCAAGGTGACCCGCACTATGAGTAG: 529 a.u.
TGTACGAAGCTATTACACGTGACTATAGTAGTTAGG: 14800 a.u.
CTAAGAGAAATTTCCCGCCACATGAACTGAGTCTTC: 576 a.u.
CTATATAAGTTTTTTCACGTTTTTGATTTTTCCTTC: 628 a.u.
GAATTCTTCTTCGCCCACGTTAAATTTTATCCCTAG: 555 a.u.
CTAGAAGCAGAAATACACGCGATAAGTGAATCTTTC: 601 a.u.

Series 5 — method: aptamer microarray, sandwich; form: DNA with 2'F-ANA; medium: in vitro; tested at: 200 nM; added: Cy3 exosite-II aptamer, 400 nM; direction: higher = stronger binding; endpoint: mean fluorescence intensity; oligonucleotide: GGTTGGTGTGGTTGG
Target: Prothrombin, mature alpha-thrombin (F2, Homo sapiens, UniProt P00734)
Setting: whole 15-mer aptamer, many near background
2'F-ANA at 1 5 6 7 8 10 13 15: 45.4 a.u.
2'F-ANA at 3 5 6 8 10 12 13 14: 52.7 a.u.
2'F-ANA at 1 3 4 8 11 12: 395 a.u.
2'F-ANA at 1 2 3 4 5 9 13: 47.1 a.u.
2'F-ANA at 3 4 8 12 13: 766 a.u.
2'F-ANA at 1 2 3 4 5 6 7 8 15: 64.7 a.u.
2'F-ANA at 1 2 8 9 11 13: 115 a.u.
2'F-ANA at 1 2 4 7 8 9 10 12 15: 62.1 a.u.
2'F-ANA at 1 3 4 5 6 8 9 10 14 15: 48.5 a.u.
2'F-ANA at 4 6 7 8 9 10 14 15: 62.5 a.u.
2'F-ANA at 3 8 9 10 12 13 14 15: 307 a.u.
2'F-ANA at 1 2 3 6 7 8 9 10 11 14 15: 55.5 a.u.
2'F-ANA at 3 5 6 7 8 10 11 15: 52.3 a.u.
2'F-ANA at 1 2 3 5 8 9 11 12 13 14: 50 a.u.
2'F-ANA at 2 3 4 6 8 15: 572 a.u.
2'F-ANA at 3 4 6 9 10 11 13 14 15: 153 a.u.
2'F-ANA at 5 9 11 14: 43.9 a.u.

Series 6 — method: protein binding microarray; form: double-stranded DNA, one strand shown; medium: in vitro; tested at: not given; baseline: not given; direction: higher = stronger binding; endpoint: E-score
Target: Histone acetyltransferase KAT6A, winged helix 1, GST fusion (KAT6A, Homo sapiens, UniProt Q92794, residues 1-85)
Setting: 8-mer, flanks averaged, mean of 2 arrays, mostly near background
Construct (chain): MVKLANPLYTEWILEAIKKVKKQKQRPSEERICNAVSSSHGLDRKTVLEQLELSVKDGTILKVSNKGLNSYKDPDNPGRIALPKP
AGCAAGGA: -0.219
AAGTGTAA: -0.109
ACGCAGAT: 0.11
CACAAGGC: 0.0112
GCAGGGAC: -0.0687
CGAGGGCA: -0.0356
AACAACTT: -0.13
AGCTTTCG: -0.1
GCAGGGCC: 0.0705
CACGCTGC: 0.156
CGAGGTCC: 0.0468
ACATCTCG: -0.133
CTTGAGTA: -0.203
CATGATTC: -0.105
ATTCTACA: -0.15
AACTCATA: -0.171
AATTTAAC: -0.148
GGAATGAC: -0.0302
ACGCGTGG: 0.293
CCTCCGGA: -0.111
ATATCGTA: -0.0687
CGTGAGAA: 0.0426
AATCAACA: -0.174
CGCGGGGA: 0.378
ATGTACAA: -0.105

Some of these lines once more (series 6):
AGCAAGGA: -0.219
AAGTGTAA: -0.109
ACGCAGAT: 0.11
CACAAGGC: 0.0112
GCAGGGAC: -0.0687
CGAGGGCA: -0.0356
AACAACTT: -0.13
AGCTTTCG: -0.1
GCAGGGCC: 0.0705
CACGCTGC: 0.156
CGAGGTCC: 0.0468
ACATCTCG: -0.133
CTTGAGTA: -0.203
CATGATTC: -0.105
